Published values gathered from unrelated publications.
A part holds a random share of what one study measured. Positions count from the first letter of the parent shown.

Block 1 — technique: protein binding microarray; form: double-stranded DNA, one strand shown; sample: in vitro; tested at: not given; reference: not given; reading: higher = stronger binding; endpoint: E-score
Target: Histone acetyltransferase KAT6A, both winged helices, GST fusion (KAT6A, Homo sapiens, UniProt Q92794, residues 1-181)
Notes: 8-mer, flanks averaged, mean of 2 arrays, mostly near background
Construct (chain): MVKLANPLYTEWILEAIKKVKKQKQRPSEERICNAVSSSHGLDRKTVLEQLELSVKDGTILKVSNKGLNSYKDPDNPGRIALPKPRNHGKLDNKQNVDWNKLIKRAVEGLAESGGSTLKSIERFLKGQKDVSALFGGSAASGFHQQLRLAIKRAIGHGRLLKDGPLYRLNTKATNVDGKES
ATATTCGC: 0.0282
ACACCACC: -0.0393
CTCTGCAG: -0.166
GCCACGAA: -0.0686
GGTACTCA: -0.11
CATCAAAC: -0.0677
GATATGAC: 0.00822
GATGGTCC: 0.0181
CAAATGCA: -0.102
AATAGTTC: -0.00505
CAGTAAGG: -0.0807
ACGGGCGC: 0.325

Block 2 — target: CCND1, cyclin fold, Cln2 fusion (human); technique: yeast growth competition, sequencing; sample: yeast; notes: strong parent motif; reference: not given; reading: higher = stronger binding; endpoint: normalised enrichment score
Starting sequence: RBL2 docking peptide (human); STTRRRLFVENDS; partner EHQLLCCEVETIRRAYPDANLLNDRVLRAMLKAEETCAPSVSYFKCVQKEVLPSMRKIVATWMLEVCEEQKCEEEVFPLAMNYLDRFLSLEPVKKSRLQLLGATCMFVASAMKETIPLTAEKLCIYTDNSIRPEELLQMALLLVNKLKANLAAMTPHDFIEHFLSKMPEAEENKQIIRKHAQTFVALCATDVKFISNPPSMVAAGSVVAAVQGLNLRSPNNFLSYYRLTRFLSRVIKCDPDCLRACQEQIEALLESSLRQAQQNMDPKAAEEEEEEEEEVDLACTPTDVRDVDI
STTRRRLFLENDS [V9L]: 0.858
STTVRRLFVENDS [R4V]: 1.04
STTRRRLFVVNDS [E10V]: 0.486
STTRKRLLVENDS [R5K F8L]: -0.084
STTYRRLFVENDS [R4Y]: 1.18
STTRRYLFVENDS [R6Y]: -0.225
STTRRRLQVENDS [F8Q]: 0.157
STERRRLFVENDS [T3E]: -0.0321
STTRRRLFVQNDS [E10Q]: -0.207
STTRRRPFVENDS [L7P]: 0.706
SWTRRRLFVENDS [T2W]: 1.56
MTTRRRLFVENDS [S1M]: 0.43
STTRRRLNVENDS [F8N]: 0.0295
ITTRRRLFVENDS [S1I]: 0.214
STTRRRHFVENDS [L7H]: -0.0692
STTRRRLFVEVDS [N11V]: 0.626
STTRRRLFVENCS [D12C]: 0.171

Block 3 — technique: EMSA with sequencing; form: double-stranded DNA, one strand shown; sample: in vitro; tested at: 10 and 20 nM; reference: negative control set to 0; reading: higher = stronger binding; endpoint: normalised bound fraction
Target: Hepatocyte nuclear factor 3-alpha (Foxa1, Mus musculus, UniProt P35582, residues 1-468, full length assumed)
Sequence of UniProt P35582 (whole entry, looked up): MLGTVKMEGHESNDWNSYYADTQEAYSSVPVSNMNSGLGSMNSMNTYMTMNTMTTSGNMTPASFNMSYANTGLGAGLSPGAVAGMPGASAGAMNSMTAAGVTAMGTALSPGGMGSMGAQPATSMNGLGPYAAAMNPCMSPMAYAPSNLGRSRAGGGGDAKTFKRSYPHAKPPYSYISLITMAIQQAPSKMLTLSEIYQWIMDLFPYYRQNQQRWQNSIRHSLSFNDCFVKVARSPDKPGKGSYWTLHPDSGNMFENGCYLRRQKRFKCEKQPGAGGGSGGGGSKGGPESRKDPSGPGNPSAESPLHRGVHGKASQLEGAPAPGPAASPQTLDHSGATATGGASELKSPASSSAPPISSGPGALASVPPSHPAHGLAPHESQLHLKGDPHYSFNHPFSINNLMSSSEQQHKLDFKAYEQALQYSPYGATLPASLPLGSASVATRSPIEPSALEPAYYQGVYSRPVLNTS
Notes: whole designed probe, mean of two concentrations, ends assumed
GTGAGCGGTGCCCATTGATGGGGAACATCTTCCCCCTCTTCCTTGCCCCACCAGCTCACCTTCCCGGGTATCTGCAAATAAGCAAAGTAAACAAAGCCGGCATTCGTTAACCCTCTTCTGGCGCAAACTGCCAGAGCAAACAGATGAATCATGGTCCTTTGGCGACGCCAGGCTCCGGGAGAGCAAAGCACCGTGTCAGGGCCATGATCCGGGGTGGCCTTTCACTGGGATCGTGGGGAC: 0.514 ratio
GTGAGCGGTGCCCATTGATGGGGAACTTTGCAAAAAATAACACAACCCTTTTCACACAGCTATCTTTCAGCTGGAAGTGACGAAGCTACATAATTCTGACAAATGAAACGTAAGTGCTTGTTTACTCTGTGGTTTTTGGGCAAGCATATCCTTCCATGATATGCATGTTGTCTCTTCCCTCCTCCTTCTTCTCTGCAATGGAAGATCATTGTGATACTTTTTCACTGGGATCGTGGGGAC: 0.353 ratio
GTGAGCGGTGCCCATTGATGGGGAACATCTTCCCCCTCTTCCTTGCCCCACCAGCTCACCTTCCCGGGTTATTTGCACAAAGGAAAATAAATAAAGCCGGCATTCGTTAACCCTCTTCACGCGCATACTGCTGTTTGCTCTGGATCTAACATGGTCCTTTGGCGACGCCAGGCTCCGGGAGAGCAAAGCACCGTGTCAGGGCCATGATCCGGGCTCGCCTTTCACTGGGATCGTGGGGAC: 0.376 ratio
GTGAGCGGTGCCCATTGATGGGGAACCTAGTTCCAGTCTTAGCATGGCAATTTCTTCCTGCAACACGCTGTTTTCACGCAAGAGATCTTCTTCTTTCTTATGACTAAGAGAAAGCTAAGTAATCTAAGGGAACTTTTAGTTAGCACTCAATAGAATGACATATCATGATTTCTTCTAAAATTAAAGAATGACATTTATATTTGTATAATGAAATAATTCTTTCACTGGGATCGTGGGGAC: 0.206 ratio
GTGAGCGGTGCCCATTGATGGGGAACTTTCCAGCCCTTAGTTTCTGGCATTTAACCTGACTCTGGTCCCTGAATGGCATGGGAGTGCTTTCAACCACAGGTTTCCACATTCATGCCACTTGTTTGCTTTTTGATCTACAGAGATCTCTGACTCATTCTTATTTGCTTTGTGTTTCCAATGGAGAAAGAGCTTGGGAAGGGAGGATCCTAATTGTCTAAATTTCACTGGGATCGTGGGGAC: 0.435 ratio
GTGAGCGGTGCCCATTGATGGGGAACAAAAATGCTCATCTCTGAATGGTGGGATTATTGTTTCTATATTCTTCTTATACATGCCTGTATTTTTTTAAACAATGAATGTTTATTACTCTGAGATTACAAAAAAGGGAGAGTTTAAAGCCCCTTACCCCAAAGTGAGGCAGGAATCAAGTCAGGGGCTTAAAGTGGCGAGCCCTGGGCTCTTTCCTGGGCTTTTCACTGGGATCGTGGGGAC: -0.0308 ratio
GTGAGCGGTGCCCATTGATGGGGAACATATACTCTGGAGCCCCTCCAGTGAATTCTTCATATCGGTTGTACTTTCCAACTCCAGGATTTCCTTTTGGTTCTTTTTCATAATTTCTCTCTTGTTTATCTTGAGGACTCTCTATTTGATGAGCCATTGTCATCATACTTTTCTTTATCTCTTTAAGTACAGTCATAGGCAGTTTTTATCACTTGCCTTTTTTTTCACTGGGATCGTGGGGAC: 0.202 ratio
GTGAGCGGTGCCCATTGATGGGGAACAGGGATGTAGACAGAGAGGCAGTTTGAATAATTTTGGAGTACATTTTACTTTAGTTTGAATGGGAGATGGTAAGAGGCAACTGGTTGGCTAAGTAATCTGCAAAAAATAGCTTTAGGTTCAGAGTCTTTCCTTGATTTCCTCTCAATAGCTCTGAGCATAGTCCTACCGCAATTTGTAGTATAAAAACATAACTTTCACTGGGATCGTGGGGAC: -0.0433 ratio

Single results of other studies
PhoQ, residues 284 288 289 292 302 303 TTSMTC
fold induction (PhoP, residues 12 14 15 18 19 LYFRQ (Escherichia coli, UniProt P23836); Sort-seq, item: YFP reporter; E. coli; PhoQ-PhoP variant library, added: 10 µM Mg2+; reference: high Mg2+ state, higher = stronger signaling): 4.03

A few entries again (block 3):
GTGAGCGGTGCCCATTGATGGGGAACATCTTCCCCCTCTTCCTTGCCCCACCAGCTCACCTTCCCGGGTTATTTGCACAAAGGAAAATAAATAAAGCCGGCATTCGTTAACCCTCTTCACGCGCATACTGCTGTTTGCTCTGGATCTAACATGGTCCTTTGGCGACGCCAGGCTCCGGGAGAGCAAAGCACCGTGTCAGGGCCATGATCCGGGCTCGCCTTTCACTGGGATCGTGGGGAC: 0.376 ratio
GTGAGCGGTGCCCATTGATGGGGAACCTAGTTCCAGTCTTAGCATGGCAATTTCTTCCTGCAACACGCTGTTTTCACGCAAGAGATCTTCTTCTTTCTTATGACTAAGAGAAAGCTAAGTAATCTAAGGGAACTTTTAGTTAGCACTCAATAGAATGACATATCATGATTTCTTCTAAAATTAAAGAATGACATTTATATTTGTATAATGAAATAATTCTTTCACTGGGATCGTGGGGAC: 0.206 ratio
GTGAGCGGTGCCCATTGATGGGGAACTTTCCAGCCCTTAGTTTCTGGCATTTAACCTGACTCTGGTCCCTGAATGGCATGGGAGTGCTTTCAACCACAGGTTTCCACATTCATGCCACTTGTTTGCTTTTTGATCTACAGAGATCTCTGACTCATTCTTATTTGCTTTGTGTTTCCAATGGAGAAAGAGCTTGGGAAGGGAGGATCCTAATTGTCTAAATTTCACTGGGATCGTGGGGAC: 0.435 ratio
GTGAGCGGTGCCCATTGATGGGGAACAAAAATGCTCATCTCTGAATGGTGGGATTATTGTTTCTATATTCTTCTTATACATGCCTGTATTTTTTTAAACAATGAATGTTTATTACTCTGAGATTACAAAAAAGGGAGAGTTTAAAGCCCCTTACCCCAAAGTGAGGCAGGAATCAAGTCAGGGGCTTAAAGTGGCGAGCCCTGGGCTCTTTCCTGGGCTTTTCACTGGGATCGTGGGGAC: -0.0308 ratio
